# Assay results of several laboratories.
# Each line is one published result; not all experiments were run side by side. ± marks the error that the study gave.
# CPL: CPL (Toxoplasma gondii, UniProt Q6DMN0)
# PTGS1: Prostaglandin G/H synthase 1 (PTGS1, Ovis aries, UniProt P05979)
# Chain of UniProt P05979 (whole entry, looked up): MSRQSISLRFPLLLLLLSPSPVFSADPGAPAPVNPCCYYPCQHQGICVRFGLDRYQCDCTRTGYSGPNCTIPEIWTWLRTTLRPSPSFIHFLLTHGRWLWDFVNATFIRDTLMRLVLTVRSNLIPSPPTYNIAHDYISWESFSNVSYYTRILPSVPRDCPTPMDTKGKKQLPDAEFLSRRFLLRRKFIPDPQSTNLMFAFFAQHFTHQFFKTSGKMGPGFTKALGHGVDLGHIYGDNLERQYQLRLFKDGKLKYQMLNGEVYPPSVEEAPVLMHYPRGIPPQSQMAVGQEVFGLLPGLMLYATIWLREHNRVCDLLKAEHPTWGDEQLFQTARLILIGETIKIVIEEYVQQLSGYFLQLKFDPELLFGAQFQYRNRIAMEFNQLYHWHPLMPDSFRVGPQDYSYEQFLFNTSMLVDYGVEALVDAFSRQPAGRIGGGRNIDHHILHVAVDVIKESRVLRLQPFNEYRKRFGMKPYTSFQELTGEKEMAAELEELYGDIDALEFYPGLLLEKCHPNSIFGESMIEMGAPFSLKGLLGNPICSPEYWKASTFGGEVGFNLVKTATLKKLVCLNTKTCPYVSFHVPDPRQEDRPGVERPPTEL
# HDAC6: Protein deacetylase HDAC6 (HDAC6, Homo sapiens, UniProt Q9UBN7)
# Chain of UniProt P10275 (whole entry, unmodified, looked up): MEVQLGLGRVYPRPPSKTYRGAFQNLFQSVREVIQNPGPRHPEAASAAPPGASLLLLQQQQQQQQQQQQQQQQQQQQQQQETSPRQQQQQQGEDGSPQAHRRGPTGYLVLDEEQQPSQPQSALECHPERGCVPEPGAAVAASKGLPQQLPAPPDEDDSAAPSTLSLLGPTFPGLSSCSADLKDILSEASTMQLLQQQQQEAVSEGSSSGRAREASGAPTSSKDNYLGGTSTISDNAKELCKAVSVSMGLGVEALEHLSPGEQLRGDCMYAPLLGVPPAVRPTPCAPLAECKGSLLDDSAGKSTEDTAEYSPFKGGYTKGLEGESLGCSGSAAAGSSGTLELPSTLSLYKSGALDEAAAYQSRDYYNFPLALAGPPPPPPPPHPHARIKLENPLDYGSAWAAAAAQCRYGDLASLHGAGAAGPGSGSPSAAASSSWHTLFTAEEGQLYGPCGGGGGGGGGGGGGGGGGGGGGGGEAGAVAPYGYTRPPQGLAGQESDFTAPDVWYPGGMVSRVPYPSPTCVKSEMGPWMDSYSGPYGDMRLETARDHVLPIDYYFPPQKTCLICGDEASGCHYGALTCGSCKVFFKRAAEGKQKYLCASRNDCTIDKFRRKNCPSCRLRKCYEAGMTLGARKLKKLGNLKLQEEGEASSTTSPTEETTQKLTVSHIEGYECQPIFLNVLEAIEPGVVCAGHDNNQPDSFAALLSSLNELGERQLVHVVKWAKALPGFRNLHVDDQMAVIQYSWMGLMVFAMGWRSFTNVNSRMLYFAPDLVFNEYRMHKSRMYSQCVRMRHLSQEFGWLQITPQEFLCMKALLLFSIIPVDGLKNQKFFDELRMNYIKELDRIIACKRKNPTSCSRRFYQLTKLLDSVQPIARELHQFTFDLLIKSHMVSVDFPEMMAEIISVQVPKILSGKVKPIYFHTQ
# Chain of UniProt Q9UBN7 (whole entry, looked up): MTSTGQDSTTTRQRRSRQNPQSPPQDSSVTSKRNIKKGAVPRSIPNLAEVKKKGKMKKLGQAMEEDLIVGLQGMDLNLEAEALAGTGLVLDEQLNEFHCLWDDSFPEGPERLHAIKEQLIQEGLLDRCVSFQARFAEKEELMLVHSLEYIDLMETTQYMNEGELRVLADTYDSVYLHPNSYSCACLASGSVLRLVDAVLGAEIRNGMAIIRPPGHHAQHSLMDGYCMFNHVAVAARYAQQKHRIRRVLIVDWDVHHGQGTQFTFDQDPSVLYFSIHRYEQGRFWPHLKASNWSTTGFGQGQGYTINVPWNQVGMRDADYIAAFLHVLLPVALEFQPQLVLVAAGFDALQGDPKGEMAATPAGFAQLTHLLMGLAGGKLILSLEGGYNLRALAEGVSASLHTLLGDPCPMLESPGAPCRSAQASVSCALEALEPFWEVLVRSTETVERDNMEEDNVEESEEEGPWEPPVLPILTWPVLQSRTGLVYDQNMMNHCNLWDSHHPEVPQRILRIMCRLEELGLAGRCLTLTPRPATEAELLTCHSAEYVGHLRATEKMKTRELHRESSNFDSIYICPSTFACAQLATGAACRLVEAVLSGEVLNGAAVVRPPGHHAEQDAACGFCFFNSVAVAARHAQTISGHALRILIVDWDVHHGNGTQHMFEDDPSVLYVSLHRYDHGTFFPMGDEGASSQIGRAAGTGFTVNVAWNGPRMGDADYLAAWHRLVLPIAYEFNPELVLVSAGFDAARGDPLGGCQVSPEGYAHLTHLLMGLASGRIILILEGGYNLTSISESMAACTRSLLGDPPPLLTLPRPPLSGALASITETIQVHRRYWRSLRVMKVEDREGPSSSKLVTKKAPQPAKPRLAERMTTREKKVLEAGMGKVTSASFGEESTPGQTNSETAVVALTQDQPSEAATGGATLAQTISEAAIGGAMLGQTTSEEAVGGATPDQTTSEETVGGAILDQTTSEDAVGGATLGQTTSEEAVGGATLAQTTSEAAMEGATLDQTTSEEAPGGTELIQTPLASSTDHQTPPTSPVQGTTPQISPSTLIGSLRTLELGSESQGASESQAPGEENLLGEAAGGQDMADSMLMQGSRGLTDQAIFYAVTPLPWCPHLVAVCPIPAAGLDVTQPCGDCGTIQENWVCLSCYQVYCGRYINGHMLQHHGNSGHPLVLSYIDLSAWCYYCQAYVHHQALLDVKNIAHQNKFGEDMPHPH
# Chain of UniProt Q9HB29 (whole entry, looked up): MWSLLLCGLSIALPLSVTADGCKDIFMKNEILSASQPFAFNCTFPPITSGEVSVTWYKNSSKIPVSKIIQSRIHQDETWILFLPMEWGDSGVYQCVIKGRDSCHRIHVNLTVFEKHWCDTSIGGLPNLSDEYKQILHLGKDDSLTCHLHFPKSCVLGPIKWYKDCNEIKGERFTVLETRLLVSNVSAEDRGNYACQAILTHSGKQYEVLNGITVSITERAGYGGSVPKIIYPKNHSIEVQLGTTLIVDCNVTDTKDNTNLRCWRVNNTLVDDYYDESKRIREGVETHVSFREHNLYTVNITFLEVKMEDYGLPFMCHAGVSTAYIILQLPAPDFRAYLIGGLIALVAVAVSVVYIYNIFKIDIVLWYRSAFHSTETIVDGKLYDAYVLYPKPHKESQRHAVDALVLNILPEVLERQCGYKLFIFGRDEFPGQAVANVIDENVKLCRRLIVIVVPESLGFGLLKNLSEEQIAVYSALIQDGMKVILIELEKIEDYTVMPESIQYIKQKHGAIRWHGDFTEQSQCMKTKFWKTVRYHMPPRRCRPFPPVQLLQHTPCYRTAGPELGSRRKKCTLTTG
# Chain of UniProt Q9UM73 (whole entry, unmodified, looked up): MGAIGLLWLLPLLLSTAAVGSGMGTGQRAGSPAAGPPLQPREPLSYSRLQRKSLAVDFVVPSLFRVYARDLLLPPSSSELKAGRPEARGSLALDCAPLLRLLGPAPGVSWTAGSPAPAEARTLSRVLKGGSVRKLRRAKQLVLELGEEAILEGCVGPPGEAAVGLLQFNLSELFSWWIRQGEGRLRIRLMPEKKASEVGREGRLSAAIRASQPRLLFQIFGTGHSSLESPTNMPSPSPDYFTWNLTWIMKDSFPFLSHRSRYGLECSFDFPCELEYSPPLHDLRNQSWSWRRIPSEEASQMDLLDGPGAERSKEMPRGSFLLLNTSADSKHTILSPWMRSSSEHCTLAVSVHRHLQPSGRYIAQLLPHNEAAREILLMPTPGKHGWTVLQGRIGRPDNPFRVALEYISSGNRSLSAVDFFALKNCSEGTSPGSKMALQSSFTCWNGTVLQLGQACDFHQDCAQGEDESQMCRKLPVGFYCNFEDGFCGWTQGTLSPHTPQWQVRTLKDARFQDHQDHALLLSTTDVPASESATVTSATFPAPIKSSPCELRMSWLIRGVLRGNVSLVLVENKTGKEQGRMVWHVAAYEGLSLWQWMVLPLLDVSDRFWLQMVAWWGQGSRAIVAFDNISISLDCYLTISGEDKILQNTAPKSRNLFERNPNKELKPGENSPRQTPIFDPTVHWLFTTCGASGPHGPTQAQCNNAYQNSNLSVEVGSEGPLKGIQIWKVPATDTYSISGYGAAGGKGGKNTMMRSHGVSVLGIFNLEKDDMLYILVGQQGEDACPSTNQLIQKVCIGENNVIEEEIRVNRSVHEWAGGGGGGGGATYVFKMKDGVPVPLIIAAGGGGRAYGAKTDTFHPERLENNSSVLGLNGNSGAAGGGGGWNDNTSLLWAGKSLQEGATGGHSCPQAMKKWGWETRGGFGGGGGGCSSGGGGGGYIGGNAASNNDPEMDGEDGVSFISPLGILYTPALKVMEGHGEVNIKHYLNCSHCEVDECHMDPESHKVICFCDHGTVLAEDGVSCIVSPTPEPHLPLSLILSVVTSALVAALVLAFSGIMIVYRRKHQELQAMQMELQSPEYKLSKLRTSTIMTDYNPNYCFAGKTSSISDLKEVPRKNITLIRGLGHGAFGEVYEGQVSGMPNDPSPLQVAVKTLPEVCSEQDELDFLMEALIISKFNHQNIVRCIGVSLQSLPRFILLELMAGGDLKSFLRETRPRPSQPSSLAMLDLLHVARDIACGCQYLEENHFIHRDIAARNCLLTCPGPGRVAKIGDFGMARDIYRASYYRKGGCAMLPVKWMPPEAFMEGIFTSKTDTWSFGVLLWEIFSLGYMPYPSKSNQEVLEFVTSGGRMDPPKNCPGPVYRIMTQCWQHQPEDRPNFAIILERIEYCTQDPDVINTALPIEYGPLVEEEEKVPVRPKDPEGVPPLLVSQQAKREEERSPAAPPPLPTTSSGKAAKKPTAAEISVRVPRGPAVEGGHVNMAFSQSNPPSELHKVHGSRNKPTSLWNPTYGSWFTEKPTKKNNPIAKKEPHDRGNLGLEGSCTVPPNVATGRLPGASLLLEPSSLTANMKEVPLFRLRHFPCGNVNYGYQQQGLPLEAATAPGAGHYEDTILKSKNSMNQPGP
# Chain of UniProt P62937 (whole entry, looked up): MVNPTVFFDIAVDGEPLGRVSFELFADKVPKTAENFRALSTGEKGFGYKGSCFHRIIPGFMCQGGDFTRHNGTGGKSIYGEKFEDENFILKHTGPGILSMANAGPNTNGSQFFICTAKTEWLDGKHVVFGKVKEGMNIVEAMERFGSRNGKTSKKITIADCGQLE
SMILES,target,test,test system,conditions,IC50
CC(C)[C@@H]1NC(=O)[C@H](Cc2ccccc2)NC(=O)CSC[C@@H](C(N)=O)NC(=O)[C@H](CCC(=O)O)NC(=O)[C@H](CO)NC(=O)[C@H](Cc2c[nH]c3ccccc23)NC(=O)[C@H](C(C)C)NC(=O)[C@H](C(C)C)NC(=O)[C@H](Cc2ccc(O)cc2)NC(=O)[C@H](CC(=O)O)NC(=O)[C@H](Cc2c[nH]c3ccccc23)NC(=O)[C@H](Cc2ccc(O)cc2)NC(=O)[C@H](Cc2c[nH]c3ccccc23)NC(=O)[C@H](CCC(=O)O)NC1=O,"Interleukin-1 receptor-like 2 (IL1RL2, Homo sapiens, UniProt Q9HB29)","reporter gene, inhibitor",HEK-Blue IL-36R,"6 h, with: IL-36 0.03 ng/mL",~14 µM
N#CC(C#N)C(c1ccccc1Cl)c1c[nH]c2ccccc12 (stereo not shown),"Cocaine esterase (CES2, Homo sapiens, UniProt O00748)","enzyme activity, inhibitor",human liver microsomes,"pH 7.4, 37 °C, with: fluorescein diacetate",11.1 ± 2.45 µM
CC[C@@H]1C(=O)N(C)c2cnc(Nc3ccc(C(=O)NCCCC[C@H](NC(=O)COCCOCCNC(=O)COCCOCCNC(=O)COCCOCCNC(=O)COCCOCCNC(=O)[C@@H](NC(=O)[C@H](CO)NC(=O)[C@H](Cc4cncn4CCCCCCCCc4ccccc4)NC(=O)[C@H](CC(C)C)NC(=O)[C@@H]4CCCN4C(C)=O)[C@@H](C)OP(=O)(O)O)C(N)=O)cc3OC)nc2N1C1CCCC1,"ALK (Homo sapiens, UniProt Q9UM73, C1156Y)","enzyme activity, inhibitor",,,9.9 µM
CC(C)C[C@@H](NC(=O)CNC(=O)/C=C/c1ccco1)C(N)=O,"Mycosin-1 (Mycolicibacterium thermoresistibile, UniProt G7CDQ2)","enzyme activity, inhibitor",,,146 µM
CC(=O)N[C@@H](CCCNC(=N)N)C(=O)N[C@@H](Cc1ccc(O)cc1)C(=O)N[C@@H](CCCNC(=N)NC(=O)NCCCCN)C(=O)N[C@H](CC(C)C)C(=O)N[C@@H](CCCNC(=N)N)C(=O)N[C@@H](Cc1ccc(O)cc1)C(N)=O,"NPY4R (Homo sapiens, UniProt P50391)","calcium signal, antagonist",,,6 µM
CC[C@H](C)[C@@H]1NC(=O)[C@H](Cc2ccccc2)NC(=O)[C@H](C)NC(=O)[C@@H](NC(=O)[C@@H](NC(=O)[C@H](CO)NC(=O)[C@@H](N)Cc2ccc(O)cc2)[C@@H](C)O)CSC(=O)[C@H](CCSC)NC1=O,"Accessory gene regulator protein C (Staphylococcus aureus, UniProt O33590)",,,,0.0013 µM
CCC(C)SSc1ncc[nH]1 (stereo not shown),"genome polyprotein, 2A protease (Enterovirus D68, UniProt A0A097BW19)","enzyme activity, inhibitor, FRET",,with 4 mM DTT,> 60 µM
C[C@@H]1CCN(c2nc3cc(Cl)ccc3o2)CCN1S(=O)(=O)c1ccccc1,"HCRTR1 (Homo sapiens, UniProt O43613)","calcium signal, antagonist, fluorescence",,,0.57 µM
O=C1c2c(O)cc(O)cc2O[C@@]2(c3ccc(O)cc3)Oc3cc(O)c4c(=O)c(O)c(-c5ccc(O)c(O)c5)oc4c3[C@@]12O,"ACHE (Homo sapiens, UniProt P22303)","enzyme activity, inhibitor, Ellman",,,> 50 µM
NC1=NN=Cc2ccccc2[O][V](=[O])[O]1.c1cnc2c(c1)ccc1cccnc12,"PTPN22 (Homo sapiens, UniProt Q9Y2R2)","enzyme activity, inhibitor",,,6.82 ± 1.93 µM
O=C(CCCCCCC(=O)Nc1ccccc1N=Nc1ccccc1)NO,"HDAC8 (Homo sapiens, UniProt Q9BY41)","enzyme activity, inhibitor",,"cis isomer, irradiated",0.32 ± 0.101 µM
CC(C)C[C@@H]1NC(=O)[C@H](CCCCN)NC(=O)[C@H](CC(C)C)NC(=O)[C@@](C)(NC(=O)[C@H](Cc2ccccc2)NC(=O)[C@H](Cc2ccc(O)cc2)NC(=O)[C@H](C)NC(=O)[C@@H](NC(=O)c2ccc3c(c2)C(=O)OC32c3ccc(O)cc3Oc3cc(O)ccc32)[C@@H](C)O)CCCC=CCCC[C@@](C)(C(=O)NCC(=O)N[C@@H](CCCNC(=N)N)C(=O)N[C@@H](Cc2c[nH]c3ccccc23)C(N)=O)NC1=O,"Gag-Pol polyprotein, integrase (gag-pol, Human immunodeficiency virus type 1 group M subtype B, UniProt P04585)","integrase strand transfer, inhibitor",,,6 ± 1 µM
COc1cccc(/C=C/C(=O)c2cccc3ccccc23)c1OC,"PTGS2 (Homo sapiens, UniProt P35354)","enzyme activity, inhibitor, ELISA",,,36.2 µM
CC(C)C[C@@H]1NC(=O)[C@H](Cc2ccccc2)NC(=O)[C@@H](N)CSSC[C@@H](C(N)=O)NC(=O)[C@H](C)NC(=O)[C@H](CC(N)=O)NC(=O)[C@H](CO)NC(=O)[C@H](C(C)C)NC(=O)[C@H](CC(N)=O)NC1=O,"WD repeat-containing protein 5, WBM site (WDR5, Homo sapiens, UniProt P61964)","binding, inhibitor",,,> 100 µM
C=C(NC(=O)C(=C)NC(=O)c1csc(C2=NC3c4csc(n4)C4NC(=O)c5csc(n5)C(C(C)(O)C(C)O)NC(=O)C5CSC(=N5)C(=CC)NC(=O)C(C(C)O)NC(=O)c5csc(n5)C3(CC2)NC(=O)C(C)NC(=O)C(=C)NC(=O)C(C(C)CC)NC2C=Cc3c(C(C)O)cc(nc3C2O)C(=O)OC4C)n1)C(N)=O (stereo not shown),"PSMB6 (Homo sapiens, UniProt P28072)","caspase-like activity, inhibitor",purified human 20S proteasome,"37 °C, 15 min preincubation, with: Ac-Nle-Pro-Nle-Asp-AMC",1.6 ± 0.3 µM
C=C1C(=O)N[C@@H](C)C(=O)N(C)[C@@H](C)C(=O)N[C@@H]([C@H](OC(=O)[C@@H](NC(C)=O)[C@H](O)C(C)C)C(C)C)C(=O)N(C)[C@@H]([C@@H](C)OC)C(=O)O[C@H](C)[C@H](NC(C)=O)C(=O)O[C@H](Cc2ccccc2)C(=O)N1C,"Guanine nucleotide-binding protein subunit alpha-11 (Homo sapiens, UniProt P29992, R183C)","inverse agonist, refers to: IP1",HEK293 with Gα11 R183C,"30 min, basal",0.0398 µM
CC(C)C[C@H](NC(=O)[C@H](CC(C)C)NC(=O)[C@H](Cc1c[nH]cn1)NC(=O)CNC(=O)[C@@H](NC(=O)[C@H](C)NC(=O)[C@H](Cc1c[nH]c2ccccc12)NC(=O)[C@H](CCC(N)=O)NC(=O)[C@H](CC(N)=O)NC(=O)CNC(=O)[C@H](CC(C)C)NC(=O)[C@H](CCCNC(=N)N)NC(=O)[C@H](CCC(N)=O)NC(=O)[C@@H]1CCC(=O)N1)C(C)C)C(N)=O,"BRS3 (Homo sapiens, UniProt P32247)","human GRPR activity, cell-based",,,> 3 µM
CC1(C(=O)O)CCCC2(C)C1CCC1(C)c3cocc3CCC12 (stereo not shown),"Androgen receptor (AR, Homo sapiens, UniProt P10275, T878A)","transcriptional activity, antagonist, ARR3-luciferase reporter",LNCaP (AR T877A),"48 h, with: R1881 1 nM",4.2 µM
N#Cc1nc(N2CCOCC2)nc(N(CCC2CCCCC2)Cc2ccc(F)cc2)n1,CPL,"enzyme activity, inhibitor, Z-L-R-AMC hydrolysis fluorescence",,,66.8 µM
CC[C@@H]1CN2CCc3c([nH]c4cccc(OC)c34)[C@@H]2C[C@@H]1/C(=C\OC)C(=O)OC,"UGT1A1 (Homo sapiens, UniProt P22309)","enzyme activity, inhibitor",,"2 h, pH 7.4",> 100 µM
CC[C@H](C)[C@H](NC(=O)[C@H](CCCNC(=N)N)NC(=O)[C@H](CO)NC(=O)[C@H](CC(C)C)NC(=O)[C@H](CCCNC(=N)N)NC(=O)[C@H](CCSC)NC(=O)[C@H](C)N)C(=O)N[C@H](C(=O)N[C@@H](CCCNC(=N)N)C(=O)N[C@H](CC(=O)O)C(=O)N[C@@H](Cc1ccccc1)C(=O)N[C@@H](CC(C)C)C(=O)N[C@@H](Cc1ccccc1)C(=O)N[C@@H](CCC(N)=O)C(=O)N[C@@H](CCCNC(=N)N)C(=O)N[C@@H](CCCCN)C(=O)N[C@@H](CCCCN)C(=O)O)[C@@H](C)CC,"histidine kinase ComD (Streptococcus pneumoniae serotype 4, UniProt A0A0H2US84)",,Streptococcus pneumoniae,,> 1 µM
COc1cc(OC)c(C(=O)/C=C/c2ccc(N(C)CCO)cc2)c(OC)c1,PTGS1,"enzyme activity, inhibitor, ELISA",,,48.2 µM
OCC[S+](CCO)C[C@@H](O)[C@@H](O)CO,"Si (Rattus norvegicus, UniProt P23739)",isomaltase activity,rat intestinal brush border vesicles,"30 min, pH 6.0, 37 °C, with: substrate 7.4 mM",> 296 µM
CC[C@@H]1NC(=O)[C@H]([C@H](O)[C@H](C)Cc2nc3ccc(C(=O)OC)cc3[nH]2)N(C)C(=O)[C@H](C(C)C)N(C)C(=O)[C@H](CC(C)C)N(C)C(=O)[C@H](CC(C)C)N(C)C(=O)[C@@H](C)NC(=O)[C@H](C)NC(=O)[C@H](CC(C)C)N(C)C(=O)[C@H](C(C)C)NC(=O)[C@H](CC(C)C)N(C)C(=O)CN(C)C1=O,"PPIA (Homo sapiens, UniProt P62937)","enzyme activity, inhibitor",,,0.0119 µM
N#Cc1c(C(F)(F)F)cc(-c2ccc(Cl)cc2)nc1SCC(=O)Nc1ccccn1,"Taar1 (Mus musculus, UniProt Q923Y8)",,,,3.07 ± 0.36 µM
CC(C)CCN(Cc1ccccc1)c1nc(C#N)nc(N2CCOCC2)n1,CPL,"enzyme activity, inhibitor, Z-L-R-AMC hydrolysis fluorescence",,,0.101 µM
O=C(CCCCCCC(=O)Nc1cccc(N=Nc2ccccc2)c1)NO,HDAC6,"enzyme activity, inhibitor",,trans isomer,0.013 ± 0.003 µM
O=C(O)c1ccccc1Nc1ccc(Oc2ccc(F)cc2)cc1,"Androgen receptor (AR, Homo sapiens, UniProt P10275)","reporter gene, antagonist, MMTV-Luc reporter",MDA-kb2,"20 h, with: 0.2 nM DHT (EC50)",3.5 ± 2.4 µM
CC(C)[C@H](NC(=O)[C@H](CCC(=O)O)NC(=O)[C@@H](NC(=O)[C@@H](C)c1cccc(C(=O)c2ccccc2)c1)C(C)C)C(=O)N[C@@H](CCC(=O)O)C(=O)O,PTGS1,"enzyme activity, inhibitor, fluorescence",,,20.3 µM
CCCCCCCCCC1N=C(N)N=C(N)N1c1ccccc1C (racemic),"folA (Escherichia coli, UniProt P0ABQ4)","enzyme activity, inhibitor",,,7 µM
O=C1c2ccccc2[Se](=O)N1c1ccccc1 (stereo not shown),"HDAC3 (Homo sapiens, UniProt O15379)","enzyme activity, inhibitor, fluorescence",,,4.18 µM
CN[C@@H]1[C@H](O)[C@H](NC)[C@H]2O[C@]3(O)[C@H](O[C@@H]2[C@H]1O)O[C@H](C)C[C@]3(O)CNCc1ccc(F)cc1,"Small ribosomal subunit protein uS5, 70S ribosome (rpsE, Mycolicibacterium smegmatis, UniProt A0QSG6)","translation, inhibitor, in vitro translation, luciferase",Mycobacterium smegmatis ribosomes,,16.6 µg/mL
CC(C)[C@@H]1NC(=O)[C@]2(C)CSC(=N2)c2cccc(n2)CNC(=O)C[C@@H](/C=C/CCS)OC1=O,HDAC6,inhibitor,,,0.654 µM
CCOC(=O)C/C(C)=N/NC(=O)c1nc2ccccc2n(C)c1=O,PTGS1,"enzyme activity, inhibitor, ELISA",,,1.62 µM
O=C[C@H](C[C@H]1CCNC1=O)NC(=O)[C@H](CC1CCCCC1)NC(=O)OCc1cccc(Cl)c1,"Genome polyprotein, 3C protease (Human enterovirus D68, UniProt Q68T42)","3C protease activity, inhibitor, FRET",,,0.055 ± 0.01 µM
C/C=C1/CN2CCc3c([nH]c4ccccc34)[C@@H]2C[C@@H]1/C(=C\OC)C(=O)OC,"HTR1A (Homo sapiens, UniProt P08908)","ligand displacement, radioligand",,cell membranes,0.904 µM
CC[C@@H]1NC(=O)[C@H](CCCNC(=N)N)NC(=O)[C@H](NC(=O)C(C)C)CCNC(=O)c2cc(F)c(c(F)c2)N=Nc2c(F)cc(cc2F)C(=O)NCCNC(=O)[C@@H](Cc2ccccc2)NC1=O,"WD repeat-containing protein 5, MLL1 complex (WDR5, Homo sapiens, UniProt P61964)",histone methyltransferase activity,,cis PSS at 520 nm,0.792 ± 0.259 µM
COc1cccc(CN(CCC(C)C)c2nc(C#N)nc(N3CCOCC3)n2)c1,CPL,"enzyme activity, inhibitor, Z-L-R-AMC hydrolysis fluorescence",,,0.047 µM
COC(=O)C1CN1S(=O)(=O)c1ccc(C(F)(F)F)cc1 (stereo not shown),"P4HB (Homo sapiens, UniProt P07237)","enzyme activity, inhibitor, absorbance",,pH 7.6,0.54 µM
COc1ccc(F)cc1S(=O)(=O)Nc1cnc2c(c1)C(=O)NCCO2,"Alkaline phosphatase, placental type (Homo sapiens, UniProt P05187)","enzyme activity, inhibitor, absorbance",,pH 7.5,3.51 µM
